Published values from different studies.
Every numbered part comes from another study and shows a few of its results, in no order.

Series 1
Target: Replicase polyprotein 1ab, main protease (rep, Severe acute respiratory syndrome coronavirus 2, UniProt P0DTD1)
Observed: reporter gene (Gaussia luciferase)
Mode: inhibitor
Tested at: 20 µM
Measurement: inhibition
COc1ccc(S(=O)(=O)N(Cc2cccnc2)[C@@H](C(=O)NO)C(C)C)cc1: -1.28%
CNC(=O)[C@@H](NC(=O)[C@H](CC(C)C)[C@H](O)C(=O)NO)C(C)(C)C: -1.26%
CC(C)(C)c1ccc(C(O)CCCN2CCC(C(O)(c3ccccc3)c3ccccc3)CC2)cc1 (stereo not drawn): -6.75%
c1cc2c(cc1O[C@H]1OC[C@H]3[C@@H]1CO[C@@H]3c1ccc3c(c1)OCO3)OCO2: -0.407%

Further values, each from its own experiment
Cn1cnc(Cn2c(=O)[nH]/c(=N\c3cc4cn(C)nc4cc3Cl)n(Cc3cc(F)c(F)cc3F)c2=O)n1
anaemia TEAE, Mild severity (human, severe renal impairment; oral, 375 mg): 0%

RVAGDSGFAAYSRY
frequency of responding donors (AIM; peptide, CD8+ T cells from PBMC, human donors; HLA-A*30:02 restricted, unit not given; baseline: positive over tested donors): 100

CC[C@H](C)[C@H](NC(=O)[C@H](CC(C)C)NC(=O)[C@H](Cc1c[nH]c2ccccc12)NC(=O)[C@H](CCC(N)=O)NC(=O)[C@@H](NC(=O)[C@H](Cc1ccccc1)NC(=O)[C@H](C)NC(=O)[C@H](CCCCNC(=O)COCCOCCNC(=O)COCCOCCNC(=O)CC[C@H](NC(=O)CCCCCCCCCCCCCCCCCCC(=O)O)C(=O)O)NC(=O)[C@H](CCC(N)=O)NC(=O)[C@H](C)NC(=O)[C@@H](NC(=O)[C@H](CCCCN)NC(=O)[C@H](CC(=O)O)NC(=O)[C@H](CC(C)C)NC(=O)C(C)(C)NC(=O)[C@@H](NC(=O)[C@H](CO)NC(=O)[C@H](Cc1ccc(O)cc1)NC(=O)[C@H](CC(=O)O)NC(=O)[C@H](CO)NC(=O)[C@@H](NC(=O)[C@H](Cc1ccccc1)NC(=O)[C@@H](NC(=O)CNC(=O)[C@H](CCC(=O)O)NC(=O)C(C)(C)NC(=O)[C@@H](N)Cc1ccc(O)cc1)[C@@H](C)O)[C@@H](C)O)[C@@H](C)CC)[C@@H](C)CC)C(C)C)C(=O)N[C@@H](C)C(=O)NCC(=O)NCC(=O)N1CCC[C@H]1C(=O)N[C@@H](CO)C(=O)N[C@@H](CO)C(=O)NCC(=O)N[C@@H](C)C(=O)N1CCC[C@H]1C(=O)N1CCC[C@H]1C(=O)N1CCC[C@H]1C(=O)N[C@@H](CO)C(N)=O
application site erythema incidence (healthy subjects; 1.5 mg, multiple ascending dose): 0%

Nc1ncnc2c([C@@H]3N[C@H](CO)[C@@H](O)[C@H]3O)c[nH]c12
infected cells (Marburg virus; viral replication, antibody staining; HeLa, Musoke; 100 µM, 24 h): 2.8%

FEYVSQPFLM
frequency of responding donors (AIM; peptide, CD8+ T cells from PBMC, human donors; HLA-B*40:01 restricted, unit not given; baseline: positive over tested donors): 40

Repeated from above (further values, each from its own experiment):
CC[C@H](C)[C@H](NC(=O)[C@H](CC(C)C)NC(=O)[C@H](Cc1c[nH]c2ccccc12)NC(=O)[C@H](CCC(N)=O)NC(=O)[C@@H](NC(=O)[C@H](Cc1ccccc1)NC(=O)[C@H](C)NC(=O)[C@H](CCCCNC(=O)COCCOCCNC(=O)COCCOCCNC(=O)CC[C@H](NC(=O)CCCCCCCCCCCCCCCCCCC(=O)O)C(=O)O)NC(=O)[C@H](CCC(N)=O)NC(=O)[C@H](C)NC(=O)[C@@H](NC(=O)[C@H](CCCCN)NC(=O)[C@H](CC(=O)O)NC(=O)[C@H](CC(C)C)NC(=O)C(C)(C)NC(=O)[C@@H](NC(=O)[C@H](CO)NC(=O)[C@H](Cc1ccc(O)cc1)NC(=O)[C@H](CC(=O)O)NC(=O)[C@H](CO)NC(=O)[C@@H](NC(=O)[C@H](Cc1ccccc1)NC(=O)[C@@H](NC(=O)CNC(=O)[C@H](CCC(=O)O)NC(=O)C(C)(C)NC(=O)[C@@H](N)Cc1ccc(O)cc1)[C@@H](C)O)[C@@H](C)O)[C@@H](C)CC)[C@@H](C)CC)C(C)C)C(=O)N[C@@H](C)C(=O)NCC(=O)NCC(=O)N1CCC[C@H]1C(=O)N[C@@H](CO)C(=O)N[C@@H](CO)C(=O)NCC(=O)N[C@@H](C)C(=O)N1CCC[C@H]1C(=O)N1CCC[C@H]1C(=O)N1CCC[C@H]1C(=O)N[C@@H](CO)C(N)=O
application site erythema incidence (healthy subjects; 1.5 mg, multiple ascending dose): 0%
